Measured values pooled from the literature.
A part holds a random share of what one study measured.
Sequence of UniProt O75116 (whole entry, looked up): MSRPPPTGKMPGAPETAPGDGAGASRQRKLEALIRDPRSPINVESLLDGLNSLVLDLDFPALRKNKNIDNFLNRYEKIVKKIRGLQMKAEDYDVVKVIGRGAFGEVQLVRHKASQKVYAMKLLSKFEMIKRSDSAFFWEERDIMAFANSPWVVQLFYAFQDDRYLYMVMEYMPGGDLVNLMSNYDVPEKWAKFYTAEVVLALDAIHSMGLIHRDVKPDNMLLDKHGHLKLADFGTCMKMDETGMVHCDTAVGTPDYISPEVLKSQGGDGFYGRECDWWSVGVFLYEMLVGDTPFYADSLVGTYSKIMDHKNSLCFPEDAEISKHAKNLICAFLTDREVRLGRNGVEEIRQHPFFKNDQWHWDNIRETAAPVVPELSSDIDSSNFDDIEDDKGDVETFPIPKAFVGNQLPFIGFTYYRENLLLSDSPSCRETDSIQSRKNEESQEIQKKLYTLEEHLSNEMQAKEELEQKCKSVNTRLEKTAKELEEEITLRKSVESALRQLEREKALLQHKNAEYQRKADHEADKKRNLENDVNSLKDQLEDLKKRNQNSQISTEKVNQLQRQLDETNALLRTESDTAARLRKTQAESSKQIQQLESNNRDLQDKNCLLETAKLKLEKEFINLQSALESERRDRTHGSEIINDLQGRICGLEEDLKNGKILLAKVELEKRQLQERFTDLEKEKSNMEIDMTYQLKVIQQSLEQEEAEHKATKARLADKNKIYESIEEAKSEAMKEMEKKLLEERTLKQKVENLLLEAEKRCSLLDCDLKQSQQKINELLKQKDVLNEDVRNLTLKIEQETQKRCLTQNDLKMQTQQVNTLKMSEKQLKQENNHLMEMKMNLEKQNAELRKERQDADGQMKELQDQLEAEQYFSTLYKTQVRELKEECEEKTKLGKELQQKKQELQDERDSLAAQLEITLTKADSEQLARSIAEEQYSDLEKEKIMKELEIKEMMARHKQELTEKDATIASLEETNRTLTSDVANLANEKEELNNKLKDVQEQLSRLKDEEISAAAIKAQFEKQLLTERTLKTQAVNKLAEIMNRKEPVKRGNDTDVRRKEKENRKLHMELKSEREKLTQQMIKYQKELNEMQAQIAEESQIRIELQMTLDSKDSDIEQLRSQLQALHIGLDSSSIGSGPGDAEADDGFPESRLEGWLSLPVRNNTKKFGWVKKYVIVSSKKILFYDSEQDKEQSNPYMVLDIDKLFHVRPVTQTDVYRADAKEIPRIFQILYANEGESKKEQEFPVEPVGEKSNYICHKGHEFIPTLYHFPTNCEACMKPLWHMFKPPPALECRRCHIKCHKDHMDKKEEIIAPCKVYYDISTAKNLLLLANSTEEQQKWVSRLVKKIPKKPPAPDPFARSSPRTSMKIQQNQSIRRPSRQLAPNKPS
Sequence of UniProt P07333 (whole entry, looked up): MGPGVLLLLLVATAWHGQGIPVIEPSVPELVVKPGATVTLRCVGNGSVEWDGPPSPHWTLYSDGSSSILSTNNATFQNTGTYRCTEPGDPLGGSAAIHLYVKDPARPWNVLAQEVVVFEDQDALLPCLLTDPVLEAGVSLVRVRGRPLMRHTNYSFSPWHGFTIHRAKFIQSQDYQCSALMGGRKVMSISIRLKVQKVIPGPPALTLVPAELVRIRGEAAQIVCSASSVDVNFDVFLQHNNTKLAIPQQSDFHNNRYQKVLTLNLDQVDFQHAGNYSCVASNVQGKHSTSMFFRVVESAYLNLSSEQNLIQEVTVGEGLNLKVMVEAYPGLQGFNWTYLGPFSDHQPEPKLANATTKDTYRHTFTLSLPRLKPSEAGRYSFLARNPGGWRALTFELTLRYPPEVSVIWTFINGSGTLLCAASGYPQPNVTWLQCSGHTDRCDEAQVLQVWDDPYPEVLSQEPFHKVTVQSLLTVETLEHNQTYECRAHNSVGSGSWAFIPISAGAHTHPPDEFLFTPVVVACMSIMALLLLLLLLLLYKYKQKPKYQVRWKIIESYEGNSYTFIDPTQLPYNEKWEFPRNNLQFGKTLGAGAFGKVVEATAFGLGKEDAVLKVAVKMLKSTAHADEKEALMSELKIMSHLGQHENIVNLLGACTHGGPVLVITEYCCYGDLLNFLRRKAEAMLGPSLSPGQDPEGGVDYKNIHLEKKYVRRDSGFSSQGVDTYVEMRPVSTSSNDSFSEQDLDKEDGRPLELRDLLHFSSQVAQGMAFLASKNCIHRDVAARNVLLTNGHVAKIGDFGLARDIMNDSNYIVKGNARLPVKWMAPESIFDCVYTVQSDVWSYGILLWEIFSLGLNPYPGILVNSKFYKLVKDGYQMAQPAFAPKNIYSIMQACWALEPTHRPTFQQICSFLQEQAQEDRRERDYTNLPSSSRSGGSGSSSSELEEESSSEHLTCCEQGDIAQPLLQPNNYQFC
Sequence of UniProt Q13237 (whole entry, looked up): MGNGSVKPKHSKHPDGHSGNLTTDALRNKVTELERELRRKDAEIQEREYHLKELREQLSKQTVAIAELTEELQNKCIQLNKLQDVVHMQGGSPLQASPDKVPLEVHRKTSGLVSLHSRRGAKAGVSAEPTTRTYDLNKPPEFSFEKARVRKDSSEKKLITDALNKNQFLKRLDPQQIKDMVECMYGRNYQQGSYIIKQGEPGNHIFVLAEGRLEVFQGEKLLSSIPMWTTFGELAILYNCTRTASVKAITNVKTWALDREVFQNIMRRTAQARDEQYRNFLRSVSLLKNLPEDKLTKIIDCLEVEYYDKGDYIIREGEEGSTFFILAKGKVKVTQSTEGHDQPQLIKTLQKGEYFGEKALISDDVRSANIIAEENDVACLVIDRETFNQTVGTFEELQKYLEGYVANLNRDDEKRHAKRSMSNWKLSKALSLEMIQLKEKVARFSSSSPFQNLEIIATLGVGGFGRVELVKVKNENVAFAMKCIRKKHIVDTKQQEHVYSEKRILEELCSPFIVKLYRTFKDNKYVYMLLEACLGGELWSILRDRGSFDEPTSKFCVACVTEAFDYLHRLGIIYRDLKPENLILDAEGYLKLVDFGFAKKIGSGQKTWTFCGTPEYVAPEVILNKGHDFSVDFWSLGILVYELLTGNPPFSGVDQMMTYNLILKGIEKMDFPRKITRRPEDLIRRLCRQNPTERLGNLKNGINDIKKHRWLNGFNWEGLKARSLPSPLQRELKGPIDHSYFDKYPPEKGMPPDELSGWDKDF
Sequence of UniProt P11802 (whole entry, looked up): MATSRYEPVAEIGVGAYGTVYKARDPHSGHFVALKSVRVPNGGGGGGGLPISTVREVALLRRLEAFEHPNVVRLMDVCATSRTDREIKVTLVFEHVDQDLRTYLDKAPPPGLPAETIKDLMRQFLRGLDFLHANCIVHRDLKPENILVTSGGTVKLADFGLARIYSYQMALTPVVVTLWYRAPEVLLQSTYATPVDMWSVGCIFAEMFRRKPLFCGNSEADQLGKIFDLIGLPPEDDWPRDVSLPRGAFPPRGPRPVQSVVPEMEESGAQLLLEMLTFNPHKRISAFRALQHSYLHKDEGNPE

Study 1 — technique: LC-MS/MS; host: human patients; matrix: plasma
Compound: COc1ccc(-c2c(Nc3ccccn3)[nH]c3c(C4=CCCCC4)c(-c4ccccc4)nn3c2=O)cc1
setting | plasma methionine concentration
50 mg QD, 8 h, geometric mean | 63800 ng/mL
200 mg BID, 1 h, geometric mean | 62400 ng/mL
200 mg BID, 6 h, geometric mean | 68900 ng/mL
200 mg BID, 6 h, mean | 76200 ng/mL
dose not given, 1 h, geometric mean, QD dosing | 64400 ng/mL
50 mg QD, 8 h, mean | 70300 ng/mL

Study 2 — read-out: enzyme activity; mode: inhibitor; tested at: 0.5 µM; baseline: control
Target: Focal adhesion kinase 1 (PTK2, Homo sapiens, UniProt Q05397)
Sequence of UniProt Q05397 (whole entry, looked up): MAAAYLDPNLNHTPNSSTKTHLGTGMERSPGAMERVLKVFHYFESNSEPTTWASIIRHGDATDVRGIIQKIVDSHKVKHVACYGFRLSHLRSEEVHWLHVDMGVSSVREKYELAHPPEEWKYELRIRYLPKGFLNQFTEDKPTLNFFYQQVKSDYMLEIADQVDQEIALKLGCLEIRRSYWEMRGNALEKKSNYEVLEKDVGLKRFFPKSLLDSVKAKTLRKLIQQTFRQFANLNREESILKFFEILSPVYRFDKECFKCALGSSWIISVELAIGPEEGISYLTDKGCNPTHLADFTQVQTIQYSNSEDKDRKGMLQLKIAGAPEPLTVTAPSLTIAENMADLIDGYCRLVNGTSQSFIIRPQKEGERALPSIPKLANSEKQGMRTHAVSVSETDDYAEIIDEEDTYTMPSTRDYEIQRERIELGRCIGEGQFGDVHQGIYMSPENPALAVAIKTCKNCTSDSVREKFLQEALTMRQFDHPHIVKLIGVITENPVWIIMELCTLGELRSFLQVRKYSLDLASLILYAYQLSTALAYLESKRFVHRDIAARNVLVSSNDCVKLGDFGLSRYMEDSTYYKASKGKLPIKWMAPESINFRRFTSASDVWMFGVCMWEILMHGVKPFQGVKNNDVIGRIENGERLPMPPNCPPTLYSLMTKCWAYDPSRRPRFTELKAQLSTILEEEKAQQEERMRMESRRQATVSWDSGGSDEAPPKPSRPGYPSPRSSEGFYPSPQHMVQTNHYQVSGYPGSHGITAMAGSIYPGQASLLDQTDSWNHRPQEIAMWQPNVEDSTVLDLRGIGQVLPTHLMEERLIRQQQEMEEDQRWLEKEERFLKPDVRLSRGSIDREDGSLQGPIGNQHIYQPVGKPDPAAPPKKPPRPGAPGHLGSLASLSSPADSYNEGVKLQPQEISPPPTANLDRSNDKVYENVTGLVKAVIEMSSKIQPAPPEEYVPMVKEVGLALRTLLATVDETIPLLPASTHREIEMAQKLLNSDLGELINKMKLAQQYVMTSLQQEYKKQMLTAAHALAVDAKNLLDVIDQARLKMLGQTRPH
SMILES | remaining activity [%]
COc1cccc(-c2cc(=O)c3ccccc3o2)c1N | 98.2
O=C1NC(=O)c2c1c1c3ccccc3[nH]c1c1[nH]c3cc(Br)ccc3c21 | 91.8
O=Nc1c(-c2c(O)[nH]c3cc(Br)ccc23)[nH]c2ccccc12 | 89
COc1ccc(COc2ccc(Cc3cnc(N)nc3N)cc2OC)cc1 | 95.5
N#Cc1cnc2cnc(NCc3cccnc3)cc2c1Nc1ccc(F)c(Cl)c1 | 99.6
Cc1ccc(S(=O)(=O)/C=C/C#N)cc1 | 104
COc1ccc2c(c1)c(C1=C(c3c[nH]c4ccccc34)C(=O)NC1=O)cn2CCCN(C)C | 88.2
O=C(c1cc2cc(O)ccc2[nH]1)c1cc2cc(O)ccc2[nH]1 | 109
c1ccc2c(-c3ccncc3)c[nH]c2c1 | 97.7
CN(C)S(=O)(=O)c1ccc2c(c1)/C(=C/c1cc3c([nH]1)CCCC3)C(=O)N2 | 33.1
c1ccc(-c2n[nH]c3c2oc2ccccc23)cc1 | 94.7
O=C1Nc2ccccc2/C1=C\c1c(Cl)[nH]c2ccccc12 | 101
O=C1Nc2ccc(Br)cc2/C1=C/c1cc2c([nH]1)CCCC2 | 81.9
O=C1Cc2c([nH]c3ccc(Br)cc23)-c2ccccc2N1 | 94.3
O=c1cc(N2CCOCC2)oc2c(-c3ccccc3)cccc12 | 103
CCCCc1c(-c2ccc(OC)cc2)[nH]c2nccnc12 | 81.7
CCCNC(=O)Nc1ccc(Oc2ncnc3cc(OC)c(OC)cc23)cc1Cl | 99.6
Cc1cc(Nc2cc(N3CCN(C)CC3)nc(Sc3ccc(NC(=O)C4CC4)cc3)n2)[nH]n1 | 100

Study 3 — technique: competition with immobilised ligand; tested at: 1 µM
SMILES: Cc1noc([C@H]2C[C@@H](c3ccc(C(F)(F)F)cc3)CN(C(=O)N3CCS(=O)(=O)C3)C2)n1
target | assay | remaining binding
ROCK2 (Homo sapiens, UniProt O75116) | cell-free assay | 100%
ALK (Homo sapiens, UniProt Q9UM73, C1156Y) | cell-free assay | 100%
Aurora kinase A (AURKA, Homo sapiens, UniProt O14965) | cell-free assay | 85%
CAMK4 (Homo sapiens, UniProt Q16566) | cell-free assay | 95%
WEE2 (Homo sapiens, UniProt P0C1S8) | cell-free assay | 100%
EPHA1 (Homo sapiens, UniProt P21709) | cell-free assay | 89%
CDKL2 (Homo sapiens, UniProt Q92772) | binding | 100%
CSNK1E (Homo sapiens, UniProt P49674) | cell-free assay | 100%
MAP2K6 (Homo sapiens, UniProt P52564) | cell-free assay | 100%
MKNK1 (Homo sapiens, UniProt Q9BUB5) | cell-free assay | 99%
PRKX (Homo sapiens, UniProt P51817) | cell-free assay | 100%
INSRR (Homo sapiens, UniProt P14616) | cell-free assay | 100%
CDK14 (Homo sapiens, UniProt O94921) | cell-free assay | 100%
MAPKAPK5 (Homo sapiens, UniProt Q8IW41) | cell-free assay | 100%
STK39 (Homo sapiens, UniProt Q9UEW8) | cell-free assay | 95%
Tyrosine-protein kinase ABL1, phosphorylated (ABL1, Homo sapiens, UniProt P00519, Y253F) | cell-free assay | 100%
Cyclin-dependent kinase 4, with cyclin D3 (CDK4, Homo sapiens, UniProt P11802) | cell-free assay | 100%
PRKG2 (Homo sapiens, UniProt Q13237) | cell-free assay | 100%
STK32A (Homo sapiens, UniProt Q8WU08) | cell-free assay | 100%
FLT3 (Homo sapiens, UniProt P36888, D835V) | cell-free assay | 91%
WNK4 (Homo sapiens, UniProt Q96J92) | cell-free assay | 100%
FLT3 (Homo sapiens, UniProt P36888) | cell-free assay | 100%
Macrophage colony-stimulating factor 1 receptor, autoinhibited (CSF1R, Homo sapiens, UniProt P07333) | cell-free assay | 100%
EPHB2 (Homo sapiens, UniProt P29323) | cell-free assay | 100%
ABL2 (Homo sapiens, UniProt P42684) | cell-free assay | 100%

Study 4 — read-out: enzyme activity; mode: inhibitor; tested at: 10 µM
Target: Calcium/calmodulin-dependent protein kinase type II subunit alpha (CAMK2A, Homo sapiens, UniProt Q9UQM7)
Sequence of UniProt Q9UQM7 (whole entry, looked up): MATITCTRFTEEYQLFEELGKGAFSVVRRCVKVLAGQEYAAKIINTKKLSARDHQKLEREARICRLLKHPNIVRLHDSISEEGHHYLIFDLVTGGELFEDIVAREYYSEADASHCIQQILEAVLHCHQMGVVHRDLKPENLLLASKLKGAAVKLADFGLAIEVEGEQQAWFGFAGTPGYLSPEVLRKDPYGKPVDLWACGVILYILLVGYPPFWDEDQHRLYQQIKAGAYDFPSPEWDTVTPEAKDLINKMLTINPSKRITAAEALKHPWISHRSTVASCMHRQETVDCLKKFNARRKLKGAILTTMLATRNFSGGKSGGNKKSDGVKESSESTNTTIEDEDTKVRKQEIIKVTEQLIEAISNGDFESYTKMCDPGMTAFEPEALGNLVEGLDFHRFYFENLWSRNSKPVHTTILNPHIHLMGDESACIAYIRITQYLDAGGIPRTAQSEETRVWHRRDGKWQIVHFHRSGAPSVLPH
Structure (SMILES) | inhibition [%]
COC(=O)C1=CO[C@@H](O[C@@H]2O[C@H](CO)[C@@H](O)[C@H](O)[C@H]2O)[C@H]2[C@@H]1C=C[C@@]2(O)CO | 7
O=C(O)[C@H](O)[C@H](O)[C@@H](O)[C@H](O)[C@H](O)CO | -7
Sc1nc2ccccc2s1 | -5
CN[C@@H]1[C@@H](O)[C@@H](O[C@@H]2[C@@H](O)[C@H](O[C@H]3O[C@H](CN)[C@@H](O)[C@H](O)[C@H]3O)[C@@H](N)C[C@H]2NC(=O)[C@@H](O)CN)OC[C@]1(C)O | -1
C[C@]12CCC3=C4CCC(=O)C=C4CC[C@H]3[C@@H]1CC[C@@]2(O)CC#N | -5
COc1ccc(-c2cc(=O)c3c(O)c(OC)c(OC)c(OC)c3o2)cc1 | -5
CC(C)Nc1cccnc1N1CCN(C(=O)c2cc3cc(NS(C)(=O)=O)ccc3[nH]2)CC1 | -7
O=c1ccn([C@@H]2O[C@H](COP(=O)(O)OP(=O)(O)OP(=O)(O)O)[C@@H](O)[C@H]2O)c(=O)[nH]1 | 2
COc1cc2oc(=O)ccc2cc1O[C@@H]1O[C@H](CO)[C@@H](O)[C@H](O)[C@H]1O | 17
CC(=O)OP(=O)(O)O | 10

A few entries again (study 3):
target | assay | remaining binding
STK39 (Homo sapiens, UniProt Q9UEW8) | cell-free assay | 95%
Tyrosine-protein kinase ABL1, phosphorylated (ABL1, Homo sapiens, UniProt P00519, Y253F) | cell-free assay | 100%
Cyclin-dependent kinase 4, with cyclin D3 (CDK4, Homo sapiens, UniProt P11802) | cell-free assay | 100%
PRKG2 (Homo sapiens, UniProt Q13237) | cell-free assay | 100%
